{"data": "Assay results gathered from unrelated publications", "Genome polyprotein 3C protease": "Genome polyprotein, 3C protease (rhinovirus B14, UniProt P03303)", "note": "Each line is one published result; not all experiments were run side by side. Numbers after ± are the reported error.", "UniProt P03303, sequence (whole entry, looked up)": "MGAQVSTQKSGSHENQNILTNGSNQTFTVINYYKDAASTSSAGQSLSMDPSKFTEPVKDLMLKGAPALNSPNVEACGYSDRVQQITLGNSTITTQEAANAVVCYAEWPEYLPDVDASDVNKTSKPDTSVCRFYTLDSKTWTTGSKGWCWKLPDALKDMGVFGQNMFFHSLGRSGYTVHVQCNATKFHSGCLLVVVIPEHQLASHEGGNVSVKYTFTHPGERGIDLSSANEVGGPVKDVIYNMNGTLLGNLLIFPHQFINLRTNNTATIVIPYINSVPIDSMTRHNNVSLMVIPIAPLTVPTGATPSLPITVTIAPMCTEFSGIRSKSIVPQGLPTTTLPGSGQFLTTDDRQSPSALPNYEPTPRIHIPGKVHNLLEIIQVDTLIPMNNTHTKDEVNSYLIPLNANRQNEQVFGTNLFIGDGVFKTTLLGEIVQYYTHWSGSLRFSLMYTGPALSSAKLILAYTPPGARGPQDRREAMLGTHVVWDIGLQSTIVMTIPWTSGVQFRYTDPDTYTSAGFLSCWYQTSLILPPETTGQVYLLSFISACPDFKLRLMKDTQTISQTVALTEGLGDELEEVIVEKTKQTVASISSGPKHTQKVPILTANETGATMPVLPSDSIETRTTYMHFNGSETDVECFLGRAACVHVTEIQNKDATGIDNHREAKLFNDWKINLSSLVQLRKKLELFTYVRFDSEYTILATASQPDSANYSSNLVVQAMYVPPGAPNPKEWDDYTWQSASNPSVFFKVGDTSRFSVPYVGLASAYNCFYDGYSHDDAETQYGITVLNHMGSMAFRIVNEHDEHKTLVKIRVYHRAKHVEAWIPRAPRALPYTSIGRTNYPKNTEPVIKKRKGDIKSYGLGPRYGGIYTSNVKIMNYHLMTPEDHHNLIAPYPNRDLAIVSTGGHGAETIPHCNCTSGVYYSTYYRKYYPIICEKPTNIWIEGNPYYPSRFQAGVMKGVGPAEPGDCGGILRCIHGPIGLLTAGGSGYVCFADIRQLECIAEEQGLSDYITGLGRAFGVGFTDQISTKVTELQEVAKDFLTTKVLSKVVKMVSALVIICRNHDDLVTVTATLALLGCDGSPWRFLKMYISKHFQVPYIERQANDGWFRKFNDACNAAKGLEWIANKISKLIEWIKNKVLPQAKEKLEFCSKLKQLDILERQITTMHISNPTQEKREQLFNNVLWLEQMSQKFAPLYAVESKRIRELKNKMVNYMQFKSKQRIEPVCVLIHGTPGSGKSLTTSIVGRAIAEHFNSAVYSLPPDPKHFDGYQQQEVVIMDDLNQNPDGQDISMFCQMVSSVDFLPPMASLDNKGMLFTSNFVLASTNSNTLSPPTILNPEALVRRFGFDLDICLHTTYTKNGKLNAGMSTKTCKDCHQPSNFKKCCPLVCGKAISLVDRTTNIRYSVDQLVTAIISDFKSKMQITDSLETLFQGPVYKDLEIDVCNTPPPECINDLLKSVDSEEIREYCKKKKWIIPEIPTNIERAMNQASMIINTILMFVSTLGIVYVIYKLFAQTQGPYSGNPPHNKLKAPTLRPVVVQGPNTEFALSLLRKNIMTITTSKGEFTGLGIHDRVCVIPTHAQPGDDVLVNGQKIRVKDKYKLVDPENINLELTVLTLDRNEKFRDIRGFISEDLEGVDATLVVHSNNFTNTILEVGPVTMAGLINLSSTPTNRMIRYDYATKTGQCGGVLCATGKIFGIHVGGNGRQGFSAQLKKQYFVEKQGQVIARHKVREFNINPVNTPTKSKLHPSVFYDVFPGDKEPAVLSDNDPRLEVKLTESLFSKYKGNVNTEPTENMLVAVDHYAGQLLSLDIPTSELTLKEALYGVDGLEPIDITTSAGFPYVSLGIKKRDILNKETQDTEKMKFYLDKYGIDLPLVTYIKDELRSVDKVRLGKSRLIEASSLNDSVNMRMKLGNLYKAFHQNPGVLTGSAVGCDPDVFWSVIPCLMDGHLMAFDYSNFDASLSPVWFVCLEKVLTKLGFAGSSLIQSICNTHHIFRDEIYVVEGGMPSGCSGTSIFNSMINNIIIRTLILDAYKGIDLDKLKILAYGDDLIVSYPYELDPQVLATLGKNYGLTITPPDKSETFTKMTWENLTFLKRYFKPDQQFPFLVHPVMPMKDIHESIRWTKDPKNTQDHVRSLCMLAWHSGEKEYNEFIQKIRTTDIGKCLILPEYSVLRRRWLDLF", "UniProt P0C0V0, sequence (whole entry, unmodified, looked up)": "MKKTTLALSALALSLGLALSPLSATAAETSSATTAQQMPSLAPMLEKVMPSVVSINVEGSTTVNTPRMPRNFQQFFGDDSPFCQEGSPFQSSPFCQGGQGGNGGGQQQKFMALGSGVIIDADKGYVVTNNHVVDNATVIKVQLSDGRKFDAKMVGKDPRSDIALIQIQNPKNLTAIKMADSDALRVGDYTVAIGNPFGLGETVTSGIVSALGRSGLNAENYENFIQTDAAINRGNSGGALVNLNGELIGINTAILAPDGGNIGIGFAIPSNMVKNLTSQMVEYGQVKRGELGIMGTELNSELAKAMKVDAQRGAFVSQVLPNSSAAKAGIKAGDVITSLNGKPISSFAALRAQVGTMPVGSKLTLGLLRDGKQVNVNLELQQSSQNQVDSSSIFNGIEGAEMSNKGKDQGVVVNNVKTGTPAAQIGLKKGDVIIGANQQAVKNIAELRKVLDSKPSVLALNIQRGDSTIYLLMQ", "UniProt P81183, sequence (whole entry, unmodified, looked up)": "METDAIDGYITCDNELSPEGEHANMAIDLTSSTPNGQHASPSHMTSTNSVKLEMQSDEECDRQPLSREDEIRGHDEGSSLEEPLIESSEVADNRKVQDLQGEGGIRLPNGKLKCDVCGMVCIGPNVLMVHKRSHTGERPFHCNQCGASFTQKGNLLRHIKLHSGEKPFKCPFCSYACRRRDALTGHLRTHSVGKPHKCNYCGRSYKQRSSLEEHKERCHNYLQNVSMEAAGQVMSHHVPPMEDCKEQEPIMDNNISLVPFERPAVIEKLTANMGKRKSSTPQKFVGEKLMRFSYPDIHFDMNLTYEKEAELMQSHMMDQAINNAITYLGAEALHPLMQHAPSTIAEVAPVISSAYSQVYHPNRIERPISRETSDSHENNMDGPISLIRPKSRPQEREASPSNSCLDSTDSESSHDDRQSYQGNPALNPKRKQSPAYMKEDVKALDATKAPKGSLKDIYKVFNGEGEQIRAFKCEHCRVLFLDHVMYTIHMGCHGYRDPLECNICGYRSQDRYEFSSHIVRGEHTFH", "UniProt P00811, sequence (whole entry, looked up)": "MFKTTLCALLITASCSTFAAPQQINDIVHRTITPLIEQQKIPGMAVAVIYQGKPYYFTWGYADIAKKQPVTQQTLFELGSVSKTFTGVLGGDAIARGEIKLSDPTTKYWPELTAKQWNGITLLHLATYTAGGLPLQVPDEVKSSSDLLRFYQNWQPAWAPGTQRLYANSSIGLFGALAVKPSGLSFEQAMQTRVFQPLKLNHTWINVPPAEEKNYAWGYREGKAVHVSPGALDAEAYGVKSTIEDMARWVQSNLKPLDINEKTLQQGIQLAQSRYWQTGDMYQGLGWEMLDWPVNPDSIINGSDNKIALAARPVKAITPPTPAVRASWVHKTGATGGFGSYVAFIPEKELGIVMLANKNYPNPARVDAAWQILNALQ", "UniProt O43741, sequence (whole entry, looked up)": "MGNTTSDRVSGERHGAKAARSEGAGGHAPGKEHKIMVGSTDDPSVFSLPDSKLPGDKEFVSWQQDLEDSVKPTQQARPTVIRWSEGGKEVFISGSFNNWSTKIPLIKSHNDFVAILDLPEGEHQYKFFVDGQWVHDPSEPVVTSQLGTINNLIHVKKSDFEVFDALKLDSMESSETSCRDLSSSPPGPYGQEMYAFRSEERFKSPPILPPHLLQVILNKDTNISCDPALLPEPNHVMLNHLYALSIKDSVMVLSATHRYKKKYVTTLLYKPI", "UniProt P42574, sequence (whole entry, looked up)": "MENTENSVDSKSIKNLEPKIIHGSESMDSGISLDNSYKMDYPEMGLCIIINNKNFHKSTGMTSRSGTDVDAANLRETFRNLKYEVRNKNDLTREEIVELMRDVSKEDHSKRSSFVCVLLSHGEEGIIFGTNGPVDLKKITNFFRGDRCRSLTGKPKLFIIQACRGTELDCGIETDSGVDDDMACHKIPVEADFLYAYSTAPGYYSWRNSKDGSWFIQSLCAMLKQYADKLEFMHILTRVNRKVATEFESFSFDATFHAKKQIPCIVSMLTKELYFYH", "UniProt P20618, sequence (whole entry, looked up)": "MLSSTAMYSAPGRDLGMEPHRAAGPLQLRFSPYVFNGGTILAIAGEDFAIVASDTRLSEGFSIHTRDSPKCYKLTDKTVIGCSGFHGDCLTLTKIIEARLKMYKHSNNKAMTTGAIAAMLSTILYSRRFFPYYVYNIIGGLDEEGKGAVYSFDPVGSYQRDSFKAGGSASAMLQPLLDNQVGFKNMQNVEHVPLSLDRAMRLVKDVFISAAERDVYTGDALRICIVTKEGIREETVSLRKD"}
{"SMILES": "CCN(Cc1ccccc1)C(=O)CCc1nc(CN2CCN(C(=O)Cc3ccc(OC)c(OC)c3)CC2)no1", "target": "SCN9A (Homo sapiens, UniProt Q15858)", "test": "whole-cell patch clamp", "test system": "HEK stable", "setting": "10 µM", "endpoint": "V1/2 of activation", "result": "-38.6 ± 2.11 mV"}
{"SMILES": "CN(C)CCCN1c2ccccc2Sc2ccc(C(F)(F)F)cc21", "target": "srtA (Staphylococcus aureus, UniProt Q2FV99)", "test": "binding, fluorescence quenching", "endpoint": "Stern-Volmer constant", "result": "5400 L/mol"}
{"SMILES": "CC[C@H](C)[C@H](NC(=O)[C@H](CCC(N)=O)NC(=O)[C@H](CC(C)C)NC(=O)[C@@H](NC(=O)CNC(=O)[C@H](Cc1ccc(O)cc1)NC(=O)[C@H](CC(=O)O)NC(=O)[C@@H](NC(=O)[C@H](CO)NC(=O)CNC(=O)[C@H](CC(=O)O)NC(=O)[C@@H](NC(=O)[C@H](CC(N)=O)NC(=O)[C@H](CCCNC(=N)N)NC(=O)[C@H](CC(N)=O)NC(=O)[C@@H](NC(=O)[C@H](C)NC(=O)[C@H](CCC(N)=O)NC(=O)[C@@H](NC(=O)[C@H](CC(N)=O)NC(=O)[C@H](Cc1ccccc1)NC(=O)[C@H](CC(N)=O)NC(=O)[C@H](CO)NC(=O)[C@H](CCC(=O)O)NC(=O)[C@H](Cc1ccccc1)NC(=O)[C@H](CCCCN)NC(=O)[C@H](C)NC(=O)[C@H](C)NC(=O)[C@H](CO)NC(=O)[C@@H](NC(=O)[C@H](Cc1c[nH]c2ccccc12)NC(=O)[C@H](CC(N)=O)NC(=O)CNC(=O)[C@H](CC(C)C)NC(=O)[C@H](CO)NC(=O)[C@H](Cc1ccc(O)cc1)NC(=O)CNC(=O)[C@H](CCCNC(=N)N)NC(=O)[C@H](Cc1ccc(O)cc1)NC(=O)[C@H](CC(N)=O)NC(=O)[C@@H](N)CC(=O)O)C(C)C)[C@@H](C)O)[C@@H](C)O)[C@@H](C)O)[C@@H](C)O)[C@@H](C)CC)C(=O)O", "target": "Periplasmic serine endoprotease DegP (degP, Escherichia coli, UniProt P0C0V0, S236A)", "test": "sedimentation velocity", "setting": "30 µM, together with: degP 20 µM", "endpoint": "12-mer fraction", "result": "66 % mol"}
{"SMILES": "CC1CN1c1cc(O)c2nc(N)sc2c1 (stereo not drawn)", "target": "Histone-lysine N-methyltransferase NSD3, SET domain (NSD3, Homo sapiens, UniProt Q9BZ95)", "test": "mass spectrometry", "test system": "NSD3 SET domain 1 µM", "setting": "10 µM, 8 h, 32 °C", "endpoint": "covalent engagement", "result": "14%"}
{"SMILES": "CC(CCC(=O)NC(CCC(=O)Nc1cccnc1)C(=O)O)C1CCC2C3C(O)CC4CC(O)CCC4(C)C3CCC12C (stereo not drawn)", "target": "SLC10A2 (Homo sapiens, UniProt Q12908)", "test": "transport efficiency, substrate, LC-MS/MS", "test system": "ASBT-MDCK", "endpoint": "normalized Jmax/Kt", "result": "0.281 µM⁻¹"}
{"SMILES": "O=C(N=P12CN3CN(CN(C3)C1)C2)c1ccccn1.[Cl][Pt][Cl]", "target": "Albumin (ALB, Homo sapiens, UniProt P02768)", "test": "adduct reversibility, circular dichroism", "setting": "concentration not given, 1 h, together with: 3-fold citric acid", "endpoint": "CD band decrease", "result": "50%"}
{"SMILES": "O=c1oc2c(CNCCc3cccc(F)c3)c(O)ccc2c2c1CCC2", "target": "ache (Electrophorus electricus, UniProt O42275)", "test": "peripheral site binding", "setting": "1 µM", "endpoint": "propidium displacement", "result": "70%"}
{"SMILES": "CC[N+](CC)(CC)CCCC(=O)NCC(=O)NCC(=O)NCC(=O)NC(CCCCNC(=O)CCN1C(=O)C=CC1=O)C(N)=O (stereo not drawn)", "target": "Sh (Drosophila melanogaster, UniProt P08510, del6-46/K253C/F425G/T449F)", "test": "ion current, tethered blocker, two-electrode voltage clamp", "test system": "Xenopus oocytes", "setting": "concentration not given", "endpoint": "irreversible block", "result": "45%"}
{"SMILES": "COC(=O)C1C(OC(c2ccc(Cl)cc2)c2ccc(Cl)cc2)CC2CCC1N2C (single isomer, unassigned)", "target": "rat L-type calcium channel", "test": "binding, radioligand displacement", "test system": "rat cortex", "setting": "dihydropyridine site, inactive if below 75% at 10000 nM, together with: [3H]nitrendipine", "endpoint": "Ki", "result": "inactive"}
{"SMILES": "CCOC(=O)/C=C/[C@H](C[C@@H]1CCNC1=O)NC(=O)[C@H](Cc1ccccc1)NC(=O)[C@H](COC(C)(C)C)NC(=O)OCc1ccccc1", "target": "Genome polyprotein 3C protease", "test": "protease activity, cell-based reporter", "test system": "human rhinovirus 14", "endpoint": "FLuc reporter expression", "result": "increased"}
{"SMILES": "NC(CNC(CNC(CC(=O)O)C(=O)O)C(=O)O)C(=O)O (stereo not drawn)", "target": "VIM-2 (Escherichia coli, UniProt Q5U7L7)", "test": "enzyme activity, inactivator", "setting": "37 °C, enzyme 10 nM, together with: nitrocefin 20 µM", "endpoint": "inactivation rate constant", "result": "0.0065 s⁻¹"}
{"SMILES": "CCCCCC1CC(=O)N[C@@H](CO)C(=O)N[C@@H](Cc2ccccc2)C(=O)N[C@@H](Cc2ccc(O)cc2)C(=O)N[C@H](CCCNC(N)=O)C(=O)N[C@@H](CC(=O)O)C(=O)O1 (stereo partly drawn)", "target": "Proteasome component C5/PSMB5 (Homo sapiens, UniProt P20618+P28074)", "setting": "50 µM", "endpoint": "activity", "result": "inactive"}
{"SMILES": "CC(C)CC(O)(CC(C)C)c1cn(C(=O)N2CCCC2)nn1", "target": "Acylamino-acid-releasing enzyme (Apeh, Mus musculus, UniProt Q8R146)", "test": "inhibitor", "setting": "3 nM, 30 min preincubation", "endpoint": "N-acetyl peptide cleavage", "result": "inhibited"}
{"SMILES": "COc1ccc2cc1Oc1ccc(cc1)C[C@H]1c3cc(c(OC)cc3CC[N@+]1(C)CCc1c[nH]c3ccccc13)Oc1c(OC)c(OC)cc3c1[C@H](C2)[N@@+](C)(CCc1c[nH]c2ccccc12)CC3", "target": "poly(dG)·poly(dC) 18-bp dsDNA", "test": "DNA binding, ethidium bromide displacement", "test system": "phosphate buffer, 10% DMSO", "setting": "pH 7.2, 25 °C, dsDNA 10 µM, 10 mM NaCl, together with: ethidium bromide 5 µM", "endpoint": "Stern-Volmer constant", "result": "10800 L/mol"}
{"SMILES": "COC[C@@H](NC(C)=O)C(=O)NCc1ccc(OCc2cccc(OC(F)(F)F)c2)cc1", "target": "Sodium channel protein type 9 subunit alpha (Mus musculus, UniProt Q62205)", "test": "steady-state fast inactivation, modulator, whole-cell patch clamp", "test system": "CAD cells", "setting": "10 µM, 0.1% DMSO", "endpoint": "V1/2 of fast inactivation", "result": "-76.5 ± 0.6 mV"}
{"SMILES": "CC(C)(C)OC(=O)CCCNC(=O)CN1CCC(Nc2cccc3c2cc(C#CCNc2ccc(P(C)(C)=O)cc2)n3CC(F)(F)F)CC1", "target": "TP53 (Homo sapiens, UniProt P04637, Y220C)", "test": "thermal stabilisation, nano differential scanning fluorimetry", "how to read": "relative to: DMSO", "endpoint": "ΔTm", "result": "6.33 °C"}
{"SMILES": "CCc1n[nH]c(NC(=O)c2ccc3c(c2)nnn3C)n1", "target": "Genome polyprotein 3C protease", "test": "protease activity, SAMDI-MS", "endpoint": "Hill slope", "result": 1.34}
{"SMILES": "CCCCCCCCCCCCCCCc1ccc(COP(O)(O)=S)cc1", "target": "Autotaxin (ENPP2, Homo sapiens, UniProt Q13822)", "setting": "enzyme substrate complex", "endpoint": "Ki′", "result": "4.43 µM"}
{"SMILES": "O=C(/C=C/c1ccc(Cl)cc1)c1ccc(N2CCNCC2)cc1", "target": "Beta-secretase 1 (BACE1, Homo sapiens, UniProt P56817)", "test": "enzyme activity, inhibitor, fluorescence", "setting": "10 µM", "endpoint": "remaining activity", "result": "40.3%"}
{"SMILES": "CC(=O)N[C@H]1[C@@H](OC[C@H](NC(=O)CNC(=O)[C@@H]2CCCN2C(=O)[C@H](C)NC(=O)[C@@H]2CCCN2C(=O)[C@@H](N)CCCNC(=N)N)C(=O)N[C@H](C(=O)N[C@@H](C)C(=O)N2CCC[C@H]2C(=O)N2CCC[C@H]2C(=O)N[C@@H](C)C(=O)N[C@@H](Cc2c[nH]cn2)C(=O)NCC(=O)O)[C@@H](C)O[C@H]2O[C@H](CO)[C@H](O)[C@H](O)[C@H]2NC(C)=O)O[C@H](CO)[C@H](O)[C@@H]1O", "target": "anti-MUC1 Fab 14 A wild type, murine", "test": "SPR", "how to read": "relative to: Glyco-S", "endpoint": "kd decrease", "result": "36.3 fold"}
{"SMILES": "CS(C)(=O)=Nc1ccc(-c2ccc(-c3nc4cc(O[C@@H]5CO[C@H]6[C@@H]5OC[C@H]6O)[nH]c4cc3F)cc2)cc1", "target": "PRKAB2/PRKAA2, with gamma2 subunit (Homo sapiens, UniProt O43741+P54646)", "test": "enzyme activity, activator", "setting": "60 min, 50% above basal activity, together with: ATP 50 µM", "endpoint": "EC150", "result": "0.196 nM"}
{"SMILES": "Cc1sc2c(c1C)C(c1ccc(Cl)cc1)=N[C@@H](CC(=O)NCCCNC(=O)c1cc([N+](=O)[O-])ccc1F)c1nnc(C)n1-2", "target": "BRD4 (Homo sapiens, UniProt O60885)", "test": "degrader", "test system": "Jurkat", "endpoint": "Dmax", "result": "58%"}
{"SMILES": "COC(=O)N(C)[C@@H](Cc1ccccc1)C(=O)N[C@@H](Cc1ccccc1)C(=O)N[C@@H](Cc1c[nH]c2ccccc12)C(=O)N[C@@H](CCCNC(=N)N)C(=O)N[C@@H](CC(C)C)C(=O)N[C@@H](CCCNC(=N)N)C(=O)N[C@@H](CCCNC(=N)N)C(=O)N[C@H](C)C(=O)N[C@@H](CCCNC(=N)N)C(=O)N1CCC[C@H]1C(=O)N[C@@H](CCCCN)C(N)=O", "target": "Oprk1 (Rattus norvegicus, UniProt P34975)", "test": "agonist", "test system": "CHO cells", "setting": "10 µM", "how to read": "relative to: dynorphin A(1-13) amide", "endpoint": "adenylyl cyclase activity", "result": "98 ± 13%"}
{"SMILES": "Cc1onc(-c2ccccc2Cl)c1C(=O)NCC(=O)O", "target": "Beta-lactamase (ampC, Escherichia coli K-12, UniProt P00811)", "endpoint": "ligand efficiency", "result": "> 0.14"}
{"SMILES": "CC(=O)N[C@@H](Cc1c[nH]c2ccccc12)C(=O)N[C@@H](CCC(=O)O)C(=O)N[C@@H](Cc1c[nH]cn1)C(=O)N[C@@H](CC(=O)O)C(=O)Nc1ccc2c(C)cc(=O)oc2c1", "target": "Caspase-3 (CASP3, Homo sapiens, UniProt P42574)", "test": "substrate cleavage, substrate, fluorogenic AMC release", "setting": "enzyme 0.25 activity units/µL", "endpoint": "Vmax", "result": "93.4 ± 8.73 RFU/min"}
{"SMILES": "Cn1cc(-c2cccc(CN3CCC4(CC3)COc3c4ccc4c3CN([C@H]3CCC(=O)NC3=O)C4=O)c2)cn1", "target": "Ikzf2/Crbn (Mus musculus, UniProt P81183+Q8C7D2, I391V)", "test system": "mouse Crbn I391V, thymus", "setting": "oral, 100 mg/kg single dose, 6 h", "endpoint": "degradation", "result": "73%"}
{"SMILES": "CCCC[C@H](NC=O)C(=O)N[C@@H](CCCC)C(=O)N[C@@H](Cc1c[nH]c2ccccc12)C(=O)N[C@@H](CCC(=O)O)C(=O)N[C@@H](CC(=O)O)C(=O)N[C@@H](Cc1c[nH]c2ccccc12)C(=O)N[C@H](C(=O)NCC(=O)N[C@@H](Cc1c[nH]c2ccccc12)C(=O)N[C@H](C(=O)O)[C@@H](C)CC)C(C)C", "target": "FPR1 (Homo sapiens, UniProt P21462, R190W)", "test": "receptor downregulation", "test system": "CHO cells", "endpoint": "Ki/EC50 ratio", "result": "3 fold"}
{"SMILES": "CC(C)C[C@H](NC(=O)CNC(=O)[C@@H](NC(=O)[C@H](CO)NC(=O)[C@H](CCCCN)NC(=O)[C@H](CC(C)C)NC(=O)C1(NC(=O)[C@H](CCC(=O)O)NC(=O)[C@H](CC(C)C)NC(=O)[C@@H](N)C(C)C)CC(C)(C)N([O])C(C)(C)C1)C(C)C)C(=O)N[C@@H](Cc1ccccc1)C(=O)O", "target": "Rhodopsin, photoactivated (Meta II) (RHO, Bos taurus, UniProt P02699)", "test": "dissociation from R*, EPR", "endpoint": "half-life", "result": "8 min"}
{"SMILES": "CC(C)P(=[Se])(NP(=[Se])(C(C)C)C(C)C)C(C)C", "target": "Alpha-amylase (Bacillus subtilis, UniProt P00691)", "test": "fluorescence quenching", "setting": "concentration not given, pH 6.8, 304 K", "endpoint": "ΔG of binding", "result": "-4.12 kcal/mol"}
{"SMILES": "O=C(O)COc1ccc(Cl)cc1", "target": "Chloride channel protein (Torpedo marmorata, UniProt P21564, C212S)", "test": "chloride current, inside-out patch clamp", "setting": "20 mM, step to -140 mV", "endpoint": "slow deactivation time constant", "result": "35 ms"}
{"note": "For quick reference, copied from above:"}
{"SMILES": "O=C(N=P12CN3CN(CN(C3)C1)C2)c1ccccn1.[Cl][Pt][Cl]", "target": "Albumin (ALB, Homo sapiens, UniProt P02768)", "test": "adduct reversibility, circular dichroism", "setting": "concentration not given, 1 h, together with: 3-fold citric acid", "endpoint": "CD band decrease", "result": "50%"}
{"SMILES": "O=c1oc2c(CNCCc3cccc(F)c3)c(O)ccc2c2c1CCC2", "target": "ache (Electrophorus electricus, UniProt O42275)", "test": "peripheral site binding", "setting": "1 µM", "endpoint": "propidium displacement", "result": "70%"}
